Measurements gathered from unrelated publications.
Mode: agonist
MTNR1B: Melatonin receptor type 1B (MTNR1B, Homo sapiens, UniProt P49286)
UniProt P49286, sequence (whole entry, looked up): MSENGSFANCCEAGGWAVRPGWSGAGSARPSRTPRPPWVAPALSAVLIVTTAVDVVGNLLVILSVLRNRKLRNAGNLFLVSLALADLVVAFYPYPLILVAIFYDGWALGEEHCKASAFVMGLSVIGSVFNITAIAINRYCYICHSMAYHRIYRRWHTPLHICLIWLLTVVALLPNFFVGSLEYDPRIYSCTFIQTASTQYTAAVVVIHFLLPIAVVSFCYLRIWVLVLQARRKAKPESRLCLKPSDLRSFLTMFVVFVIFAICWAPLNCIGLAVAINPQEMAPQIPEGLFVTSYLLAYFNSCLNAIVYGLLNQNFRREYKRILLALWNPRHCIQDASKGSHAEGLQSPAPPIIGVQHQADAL
HTR1F: 5-hydroxytryptamine receptor 1F (HTR1F, Homo sapiens, UniProt P30939)
UniProt P30939, sequence (whole entry, looked up): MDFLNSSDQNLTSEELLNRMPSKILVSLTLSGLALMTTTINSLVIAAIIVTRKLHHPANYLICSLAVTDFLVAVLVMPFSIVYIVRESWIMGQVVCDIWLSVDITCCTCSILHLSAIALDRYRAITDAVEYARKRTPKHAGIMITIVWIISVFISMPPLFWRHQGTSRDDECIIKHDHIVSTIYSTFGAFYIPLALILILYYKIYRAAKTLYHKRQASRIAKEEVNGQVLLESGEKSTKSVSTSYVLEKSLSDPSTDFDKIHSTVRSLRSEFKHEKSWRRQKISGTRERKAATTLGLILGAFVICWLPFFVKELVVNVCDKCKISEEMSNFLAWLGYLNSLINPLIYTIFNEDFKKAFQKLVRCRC
MTNR1A: Melatonin receptor type 1A (MTNR1A, Homo sapiens, UniProt P48039)
UniProt P48039, sequence (whole entry, looked up): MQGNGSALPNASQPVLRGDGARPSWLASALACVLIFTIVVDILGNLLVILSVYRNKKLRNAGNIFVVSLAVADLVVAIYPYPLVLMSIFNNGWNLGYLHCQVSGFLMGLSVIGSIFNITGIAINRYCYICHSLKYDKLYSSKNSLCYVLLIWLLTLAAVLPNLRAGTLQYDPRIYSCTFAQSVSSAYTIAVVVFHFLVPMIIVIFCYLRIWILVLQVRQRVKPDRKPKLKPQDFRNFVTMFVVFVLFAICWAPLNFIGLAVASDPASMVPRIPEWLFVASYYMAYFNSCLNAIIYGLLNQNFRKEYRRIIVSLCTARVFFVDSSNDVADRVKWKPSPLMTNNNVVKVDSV
UniProt P0DMS8, sequence (whole entry, unmodified, looked up): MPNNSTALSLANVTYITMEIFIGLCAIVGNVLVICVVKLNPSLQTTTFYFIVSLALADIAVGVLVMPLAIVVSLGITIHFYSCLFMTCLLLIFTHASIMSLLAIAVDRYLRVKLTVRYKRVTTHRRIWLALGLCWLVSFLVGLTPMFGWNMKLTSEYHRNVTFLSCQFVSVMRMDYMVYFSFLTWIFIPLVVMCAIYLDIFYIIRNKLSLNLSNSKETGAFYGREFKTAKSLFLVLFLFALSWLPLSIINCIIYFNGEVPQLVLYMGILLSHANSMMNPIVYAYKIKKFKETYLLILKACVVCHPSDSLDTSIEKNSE
UniProt Q16581, sequence (whole entry, looked up): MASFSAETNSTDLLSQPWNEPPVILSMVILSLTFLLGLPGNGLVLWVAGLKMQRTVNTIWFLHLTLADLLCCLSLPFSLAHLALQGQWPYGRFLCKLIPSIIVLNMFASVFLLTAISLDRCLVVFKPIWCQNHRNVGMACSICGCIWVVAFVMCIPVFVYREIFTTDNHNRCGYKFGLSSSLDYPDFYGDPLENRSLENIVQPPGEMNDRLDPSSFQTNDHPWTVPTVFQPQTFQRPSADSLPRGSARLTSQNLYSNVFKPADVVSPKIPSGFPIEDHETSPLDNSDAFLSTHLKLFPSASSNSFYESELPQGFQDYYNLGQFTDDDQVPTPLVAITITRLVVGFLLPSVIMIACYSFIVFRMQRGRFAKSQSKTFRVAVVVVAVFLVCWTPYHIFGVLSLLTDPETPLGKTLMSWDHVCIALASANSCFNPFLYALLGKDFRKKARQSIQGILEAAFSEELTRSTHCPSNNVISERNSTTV

Compound	target	assay	setting	EC50 [nM]
COc1cc(I)c2[nH]cc(CCNC(C)=O)c2c1	MTNR1B	GTPγS binding, radiometric	cell membranes	37.2
Cc1ccc(Sc2ccccc2N2CCNCC2)c(C)c1	HTR1F	G protein activation, BRET		603
COc1ccc2c(c1)N(Cc1ccnc(C)c1)CCO2	MTNR1A	cAMP, luciferase		0.173
COc1ccc2ncn(CCNC(C)=O)c2c1	MTNR1B	GTPγS binding, radiometric	cell membranes	759
COC(=O)[C@@H]1[C@H]2C[C@H]3c4[nH]c5ccccc5c4CCN3C[C@@H]2CC[C@@H]1O	HTR1F	G protein activation, BRET		173
CCOc1ccc(CNc2ccc(C)nc2)cc1	MTNR1A	cAMP, luciferase		2520
CN(C)c1ncnc2c1ncn2[C@@H]1O[C@H](CO)[C@@H](O)[C@H]1O	ADORA3 (Homo sapiens, UniProt P0DMS8, I253N/V169F)	G protein activation		36000
CC(C)C[C@H](NC(=O)[C@@H](N)[C@@H](C)O)C(=O)N[C@@H](CCC(N)=O)C(=O)N1CCC[C@H]1C(=O)N1CCC[C@H]1C(=O)N[C@@H](C)C(=O)N[C@@H](CO)C(=O)N[C@@H](CO)C(=O)N[C@@H](CCCNC(=N)N)C(=O)N[C@H](CCCNC(=N)N)C(=O)N[C@@H](CCCNC(=N)N)C(=O)N[C@@H](Cc1c[nH]cn1)C(=O)N[C@@H](Cc1ccccc1)C(=O)N[C@@H](Cc1c[nH]cn1)C(=O)N[C@@H](Cc1c[nH]cn1)C(=O)N[C@@H](C)C(=O)N[C@@H](CC(C)C)C(=O)N1CCC[C@H]1C(=O)N1CCC[C@H]1C(=O)N[C@H](C)C(=O)N[C@@H](CCCNC(=N)N)C(=O)O	C3AR1 (Homo sapiens, UniProt Q16581)	β-arrestin recruitment, BRET		5.99
COC(=O)c1cc(Cn2c(=O)ccn2C)c(C)s1	MTNR1A	cAMP, luciferase		51.7
CC(C)=CCNc1ncnc2c1ncn2[C@@H]1O[C@H](CO)[C@@H](O)[C@H]1O	ADORA3 (Homo sapiens, UniProt P0DMS8, M174A)	G protein activation		36.1

A few entries again:
Compound	target	assay	setting	EC50 [nM]
CCOc1ccc(CNc2ccc(C)nc2)cc1	MTNR1A	cAMP, luciferase		2520
